Results collected from several papers.
Compare with care: the assays were run in different laboratories. ± gives the spread as reported.

Substance = COC1C=COC2(C)Oc3c(C)c(O)c4c(c3C2=O)C2=NC3(CCN(CC(C)C)CC3)NC2=C(NC(=O)C(C)=CC=CC(C)C(O)C(C)C(O)C(C)C(OC(=O)c2cncnc2)C1C)C4=O (centres unmarked); test system = human plasma; measurement = fraction unbound; value = 0.094
Substance = NCCC(=O)N1Cc2ccccc2-c2c(nnn2-c2nc(N)c3ncn(C4OC(CO)C(O)C4O)c3n2)-c2ccccc21 (mixture of isomers); assay = HDM-PAMPA; conditions = 75 µM, 16 h, ambient; measurement = fraction absorbed; value = 22%
Substance = COC1C=COC2(C)Oc3c(C)c(O)c4c(c3C2=O)C2=NC3(CCN(CC(C)C)CC3)NC2=C(NC(=O)C(C)=CC=CC(C)C(O)C(C)C(O)C(C)C(OC(=O)c2cccnc2)C1C)C4=O (centres unmarked); assay = rapid equilibrium dialysis; test system = mouse plasma; measurement = fraction unbound; value = 0.021
Substance = O=C(Cc1ccccc1)Nc1nc2ccccc2n1Cc1ccccc1; test system = mouse liver microsomes; conditions = 0.5 µM, 1 mg/mL protein; measurement = fraction unbound; value = 38.6%
Substance = COc1ccc(S(=O)(=O)N(C)/N=C/c2ccc(C#N)cc2)cc1OC; assay = PAMPA-GIT; conditions = 500 µM, 8 h; measurement = fraction absorbed; value = 100%
Substance = CC(C)(Sc1cc[n+]([O-])cc1-c1ccc(C#N)c2ccccc12)C(=O)OC1OC(C(=O)O)C(O)C(O)C1O (centres unmarked); test system = urine; conditions = oral, 15 mg, 72 h, severe renal impairment; how to read = relative to: dose; measurement = fraction excreted unchanged; value = 11.9%
Substance = COc1ccc(S(=O)(=O)N/N=C/c2ccc(C#N)cc2)cc1OC; assay = PAMPA-GIT; conditions = 500 µM, 8 h; measurement = fraction absorbed; value = 100%
Substance = CCCCc1oc2ccccc2c1C(=O)c1cc(I)c(OCCO)c(I)c1; assay = ultracentrifugation; test system = human plasma; conditions = 2 h; measurement = fraction unbound; value = 0.049 ± 0.017
Substance = COC1C=COC2(C)Oc3c(C)c(O)c4c(c3C2=O)C2=NC3(CCN(CC(C)C)CC3)NC2=C(NC(=O)C(C)=CC=CC(C)C(O)C(C)C(O)C(C)C(OC(=O)Nc2cscn2)C1C)C4=O (centres unmarked); test system = human plasma; measurement = fraction unbound; value = 0.018
Substance = CC(C)(Sc1ccncc1-c1ccc(C#N)c2ccccc12)C(=O)OC1OC(C(=O)O)C(O)C(O)C1O (centres unmarked); test system = urine; conditions = oral, 15 mg, 72 h, severe renal impairment; how to read = relative to: dose; measurement = fraction excreted unchanged; value = 4.32%
Substance = Polymyxin B; assay = ultrafiltration ELISA; test system = 0.9% NaCl solution; conditions = 1 µg/mL, 10 kDa MMCO filter; how to read = relative to: positive control; measurement = fraction in filtrate; value = 0%

A few entries again:
Substance = COC1C=COC2(C)Oc3c(C)c(O)c4c(c3C2=O)C2=NC3(CCN(CC(C)C)CC3)NC2=C(NC(=O)C(C)=CC=CC(C)C(O)C(C)C(O)C(C)C(OC(=O)c2cccnc2)C1C)C4=O (centres unmarked); assay = rapid equilibrium dialysis; test system = mouse plasma; measurement = fraction unbound; value = 0.021
